Measurements of several laboratories.
Lines come from different studies, so protocols differ. Numbers after ± are the reported error.
Organism: Trypanosoma cruzi

SMILES | assay | test system | setting | IC50
C#CCO[C@H]1C[C@H]2[C@@H](C)C[C@H]3OC(=O)C(=C)[C@H]3C[C@]2(C)[C@H]1O | parasite growth, thymidine uptake | – | epimastigote | 25.1 µM
Cc1ccccc1OCC(N)COc1ccccc1C | parasite growth | L929, TULAHUEN | intracellular, amastigote | 10 µM
COc1cc(O)c(-c2ccc(OC)c3c(OC)cc(C)cc23)c2c1[C@H](C)N(C)[C@H](C)C2 | – | Tulahuen C4, amastigotes | – | 92.9 µM
CC(C)(C)c1ccc(OC(=O)/C=C/C#N)cc1 | parasite growth, resazurin | mouse Macrophage | 24 h, intracellular, amastigote | 23.1 µM
Cc1ncc([N+](=O)[O-])n1CC(O)CO (stereo not shown) | parasite growth | – | 24 h, trypomastigote | 1590 µM
NC(COc1ccccc1[N+](=O)[O-])COc1ccccc1[N+](=O)[O-] | parasite growth | L929, TULAHUEN | intracellular, amastigote | 18 µM
N#C/C=C/C(=O)Oc1cccc(F)c1 | parasite growth, resazurin | – | 72 h, epimastigote | 5.06 µM
C=C1C(=O)O[C@@H]2C[C@H](C)[C@@H]3C[C@H](O[Si](c4ccccc4)(c4ccccc4)C(C)(C)C)[C@H](O)[C@@]3(C)C[C@H]12 | parasite growth, thymidine uptake | – | epimastigote | 46.8 µM
COc1cc(/C=C/C(=O)N2CCN(c3ccccc3)CC2)ccc1O | parasite growth | mouse Peritoneal macrophage | 48 h, intracellular, amastigote | > 60 µM
CC(=O)OC(CCl)Cn1cnc([N+](=O)[O-])c1 (stereo not shown) | parasite growth | – | 24 h, trypomastigote | 1130 µM
CC(C)C[C@@H]1NC(=S)NC1=O | parasite growth | – | 24 h, trypomastigote | 115 µg/mL
COc1ccc(OC(=O)/C=C/C#N)cc1 | parasite growth, resazurin | mouse Macrophage | 24 h, intracellular, amastigote | 92.3 µM
CO/N=C(\C)c1ccc(-n2ccnc2)c(NC(=O)c2cnc(-c3ccccc3)nc2)c1 | parasite growth, resazurin | – | 48 h, epimastigote | 6.11 µM
Cc1nc([N+](=O)[O-])cn1CC(O)CCl (stereo not shown) | parasite growth | – | 24 h, trypomastigote | 1690 µM
Cc1nc(C(=O)N2CCC[C@@H]2C(=O)N[C@H](CCC2CCCCC2)C(=O)N[C@H](CC(C)C)C(=O)NC(C)(C)C(=O)N[C@H](CC(C)C)C(=O)N[C@H](CC(C)C)C(=O)NC(C)(C)C(=O)NC(C)(C)C(=O)NCCC(=O)NC2(CN(C)C)CCC2)co1 | beta-galactosidase | L6, Tulahuen C2C4 | – | 0.311 µM
NC(COc1cccc2ccccc12)COc1cccc2ccccc12 | parasite growth | L929, TULAHUEN | intracellular, amastigote | 13 µM
C=C1C(=O)O[C@@H]2C[C@H](C)[C@@H]3C[C@H](OCc4cn(Cc5ccccc5)nn4)[C@H](OCc4cn(Cc5ccccc5)nn4)[C@@]3(C)C[C@H]12 | parasite growth, thymidine uptake | – | epimastigote | 21.4 µM
NNc1nnc(Cl)c2ccccc12 | parasite growth | – | 5 days, epimastigote | > 25 µM
COc1ccc(Nc2c(C#N)cnc3ccc(Cl)cc23)cc1 | growth | Y, epimastigote | 72 h, together with: 150 µM heme | 0.9 ± 1.2 µM

Some of these lines once more:
SMILES | assay | test system | setting | IC50
NC(COc1cccc2ccccc12)COc1cccc2ccccc12 | parasite growth | L929, TULAHUEN | intracellular, amastigote | 13 µM
C=C1C(=O)O[C@@H]2C[C@H](C)[C@@H]3C[C@H](OCc4cn(Cc5ccccc5)nn4)[C@H](OCc4cn(Cc5ccccc5)nn4)[C@@]3(C)C[C@H]12 | parasite growth, thymidine uptake | – | epimastigote | 21.4 µM
NNc1nnc(Cl)c2ccccc12 | parasite growth | – | 5 days, epimastigote | > 25 µM
